Published values from different studies.
Parts stem from different laboratories: compare values within a part only.
UniProt Q13283, sequence (whole entry, looked up): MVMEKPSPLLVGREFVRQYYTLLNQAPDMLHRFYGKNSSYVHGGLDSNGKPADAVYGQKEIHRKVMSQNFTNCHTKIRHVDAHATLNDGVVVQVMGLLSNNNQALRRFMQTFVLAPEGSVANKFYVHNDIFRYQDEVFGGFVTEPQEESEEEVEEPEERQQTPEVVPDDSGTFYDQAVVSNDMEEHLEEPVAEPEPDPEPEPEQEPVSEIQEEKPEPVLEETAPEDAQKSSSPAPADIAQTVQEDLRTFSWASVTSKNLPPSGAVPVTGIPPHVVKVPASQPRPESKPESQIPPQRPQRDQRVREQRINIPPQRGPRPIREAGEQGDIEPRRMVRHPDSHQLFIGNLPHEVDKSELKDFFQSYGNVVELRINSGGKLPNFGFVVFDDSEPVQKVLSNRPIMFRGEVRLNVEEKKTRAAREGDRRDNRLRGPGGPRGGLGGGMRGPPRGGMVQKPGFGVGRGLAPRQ

Block 1 — method: protein binding microarray; molecule type: double-stranded DNA, one strand shown; matrix: in vitro; tested at: not given; reference: not given; direction: higher = stronger binding
Target: Histone acetyltransferase KAT6A, both winged helices, GST fusion (KAT6A, Homo sapiens, UniProt Q92794, residues 1-181)
Notes: 8-mer, flanks averaged, mean of 2 arrays, mostly near background
Target sequence (chain): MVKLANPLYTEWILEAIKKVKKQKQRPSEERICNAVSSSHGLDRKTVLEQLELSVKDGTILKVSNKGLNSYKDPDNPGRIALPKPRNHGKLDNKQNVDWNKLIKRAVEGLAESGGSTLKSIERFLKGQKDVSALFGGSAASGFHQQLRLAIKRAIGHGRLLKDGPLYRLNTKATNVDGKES
| Strand | E-score |
| --- | --- |
| CTCACCAA | -0.0761 |
| GATAAGCC | -0.0807 |
| GACTTAAC | -0.0497 |

Block 2 — method: RNA Bind-n-Seq; molecule type: RNA; matrix: in vitro; tested at: 20 nM; notes: 6-mer, flanks averaged, single round; with: 150 mM LiCl; reference: input library; direction: higher = stronger binding
Target: TAR DNA-binding protein 43, full length, His tag (TARDBP, Homo sapiens, UniProt Q13148, residues 1-414)
| Strand | 6-mer enrichment (R) |
| --- | --- |
| GAGAGG | 1.22 |
| ACAACU | 0.838 |
| AACAGU | 0.86 |

Other studies, line by line
| Molecule | target | assay | system | conditions | scale | endpoint | result |
| --- | --- | --- | --- | --- | --- | --- | --- |
| GGGAGUUCUACAGUCCGACGAUCCACAGACAACACGCACCCACACAGACACAGAGGGAAGGGGUUGGGAUGGGGACAGAGUGCACAGCAGGGCGGGGUAGGACCCCAGCCCCUUGGAAUUCUCGGGUGUCAAGG | Ras GTPase-activating protein-binding protein 1, C-terminal RGG region (G3BP1, Homo sapiens, UniProt Q13283) | RNA Bind-n-Seq | RNA, in vitro | 1 µM, whole 134-nt RNA, ends assumed, with: 150 mM KCl | reference: input library, higher = stronger binding | log2 enrichment | 0.0545 |
| PhoQ, residues 284 288 289 292 302 303 ASTSDA | PhoP, residues 12 14 15 18 19 TTLRV (Escherichia coli, UniProt P23836) | Sort-seq, item: YFP reporter | E. coli | PhoQ-PhoP variant library, with: 10 µM Mg2+ | reference: high Mg2+ state, higher = stronger signaling | fold induction | 4.13 |
| GGGAGUUCUACAGUCCGACGAUCCACAGACAACACGCACCCACACAGACACAGUGGGAAGGGGUUGGGAUGGGGACAGGGUGCACAGCAGGGCGGGGUAGGACCCCAGCCCCUUGGAAUUCUCGGGUGUCAAGG | Ras GTPase-activating protein-binding protein 1, full length (G3BP1, Homo sapiens, UniProt Q13283) | RNA Bind-n-Seq | RNA, in vitro | 200 nM, whole 134-nt RNA, ends assumed, with: 150 mM KCl | reference: input library, higher = stronger binding | log2 enrichment | 1.75 |
